Experimental data collected from several papers.
Values joined by “and” are separate records of one study, mostly repeats; a detail may differ. ± gives the spread as reported.
PPM1D: Protein phosphatase 1D (PPM1D, Homo sapiens, UniProt O15297)
Sequence of UniProt O15297 (whole entry, looked up): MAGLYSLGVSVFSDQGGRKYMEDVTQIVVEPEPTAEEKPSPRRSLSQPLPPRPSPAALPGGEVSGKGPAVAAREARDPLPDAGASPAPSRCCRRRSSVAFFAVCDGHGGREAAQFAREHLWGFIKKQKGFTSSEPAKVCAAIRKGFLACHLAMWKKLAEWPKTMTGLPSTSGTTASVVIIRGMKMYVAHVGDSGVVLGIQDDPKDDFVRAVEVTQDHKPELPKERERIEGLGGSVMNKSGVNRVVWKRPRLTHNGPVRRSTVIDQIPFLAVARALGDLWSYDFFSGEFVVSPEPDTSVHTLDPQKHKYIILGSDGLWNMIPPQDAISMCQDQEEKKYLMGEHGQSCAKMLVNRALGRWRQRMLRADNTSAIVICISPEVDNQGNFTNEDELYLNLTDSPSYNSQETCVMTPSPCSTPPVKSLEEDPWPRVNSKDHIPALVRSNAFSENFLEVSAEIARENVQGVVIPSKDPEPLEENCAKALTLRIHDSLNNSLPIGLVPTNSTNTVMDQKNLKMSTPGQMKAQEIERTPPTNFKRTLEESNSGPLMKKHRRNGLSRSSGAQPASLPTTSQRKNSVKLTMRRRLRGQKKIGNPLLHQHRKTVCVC
PPARG: Peroxisome proliferator-activated receptor gamma (PPARG, Homo sapiens, UniProt P37231)
Sequence of UniProt P37231 (whole entry, looked up): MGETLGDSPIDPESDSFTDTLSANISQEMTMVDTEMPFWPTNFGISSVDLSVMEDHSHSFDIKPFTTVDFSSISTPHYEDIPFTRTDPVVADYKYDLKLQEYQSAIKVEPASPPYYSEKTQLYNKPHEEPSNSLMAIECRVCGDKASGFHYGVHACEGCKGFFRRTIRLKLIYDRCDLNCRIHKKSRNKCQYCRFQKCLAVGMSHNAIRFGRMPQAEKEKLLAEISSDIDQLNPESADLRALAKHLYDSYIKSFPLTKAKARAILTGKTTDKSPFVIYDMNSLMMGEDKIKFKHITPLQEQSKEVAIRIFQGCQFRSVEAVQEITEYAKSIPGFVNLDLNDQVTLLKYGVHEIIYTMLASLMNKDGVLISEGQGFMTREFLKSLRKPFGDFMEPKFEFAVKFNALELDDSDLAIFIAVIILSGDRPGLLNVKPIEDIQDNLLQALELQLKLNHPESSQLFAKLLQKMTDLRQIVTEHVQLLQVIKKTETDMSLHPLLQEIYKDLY
TMEM97: Sigma intracellular receptor 2 (TMEM97, Homo sapiens, UniProt Q5BJF2)
Sequence of UniProt Q9SZU7 (whole entry, unmodified, looked up): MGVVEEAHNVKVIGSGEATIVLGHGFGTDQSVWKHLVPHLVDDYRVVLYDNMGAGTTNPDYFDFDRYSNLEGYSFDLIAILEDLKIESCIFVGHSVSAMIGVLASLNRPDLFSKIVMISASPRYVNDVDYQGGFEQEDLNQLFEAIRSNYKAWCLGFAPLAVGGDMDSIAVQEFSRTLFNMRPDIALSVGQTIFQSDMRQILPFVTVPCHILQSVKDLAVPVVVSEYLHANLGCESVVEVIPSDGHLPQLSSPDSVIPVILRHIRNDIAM
Sequence of UniProt Q9UM07 (whole entry, looked up): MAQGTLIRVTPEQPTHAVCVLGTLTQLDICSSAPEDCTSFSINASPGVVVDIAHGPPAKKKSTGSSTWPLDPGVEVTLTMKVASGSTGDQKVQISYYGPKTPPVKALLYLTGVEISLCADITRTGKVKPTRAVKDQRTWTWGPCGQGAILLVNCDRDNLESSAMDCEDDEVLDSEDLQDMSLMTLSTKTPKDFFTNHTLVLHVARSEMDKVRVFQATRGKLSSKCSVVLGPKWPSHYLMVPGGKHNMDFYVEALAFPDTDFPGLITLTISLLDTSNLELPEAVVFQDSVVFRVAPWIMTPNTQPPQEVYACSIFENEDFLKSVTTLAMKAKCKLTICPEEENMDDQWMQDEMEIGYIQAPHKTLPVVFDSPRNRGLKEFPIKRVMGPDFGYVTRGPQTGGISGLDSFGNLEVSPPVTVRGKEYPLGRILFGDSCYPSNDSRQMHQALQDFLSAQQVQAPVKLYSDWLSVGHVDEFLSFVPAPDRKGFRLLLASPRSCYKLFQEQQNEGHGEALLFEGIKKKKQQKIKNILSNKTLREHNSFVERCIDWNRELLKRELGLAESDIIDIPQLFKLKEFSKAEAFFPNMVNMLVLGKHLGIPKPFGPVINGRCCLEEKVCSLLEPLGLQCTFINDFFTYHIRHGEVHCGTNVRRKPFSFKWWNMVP
Sequence of UniProt P10145 (whole entry, looked up): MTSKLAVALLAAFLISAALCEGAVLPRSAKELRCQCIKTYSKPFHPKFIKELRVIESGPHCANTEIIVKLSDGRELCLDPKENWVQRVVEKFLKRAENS
Sequence of UniProt Q5BJF2 (whole entry, looked up): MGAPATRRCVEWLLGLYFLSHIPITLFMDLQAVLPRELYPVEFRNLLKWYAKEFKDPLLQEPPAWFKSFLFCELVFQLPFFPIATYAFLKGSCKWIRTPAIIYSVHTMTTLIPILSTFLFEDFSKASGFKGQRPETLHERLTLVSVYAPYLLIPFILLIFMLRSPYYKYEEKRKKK
Sequence of UniProt P08191 (whole entry, looked up): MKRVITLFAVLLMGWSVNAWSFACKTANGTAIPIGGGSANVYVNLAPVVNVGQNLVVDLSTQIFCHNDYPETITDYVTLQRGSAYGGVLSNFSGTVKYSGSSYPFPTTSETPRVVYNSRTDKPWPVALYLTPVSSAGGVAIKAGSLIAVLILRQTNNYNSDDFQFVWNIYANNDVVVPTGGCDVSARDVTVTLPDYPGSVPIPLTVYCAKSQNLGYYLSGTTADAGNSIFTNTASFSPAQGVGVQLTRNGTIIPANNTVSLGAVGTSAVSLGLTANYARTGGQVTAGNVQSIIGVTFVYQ
Sequence of UniProt A0A109QYD3 (whole entry, unmodified, looked up): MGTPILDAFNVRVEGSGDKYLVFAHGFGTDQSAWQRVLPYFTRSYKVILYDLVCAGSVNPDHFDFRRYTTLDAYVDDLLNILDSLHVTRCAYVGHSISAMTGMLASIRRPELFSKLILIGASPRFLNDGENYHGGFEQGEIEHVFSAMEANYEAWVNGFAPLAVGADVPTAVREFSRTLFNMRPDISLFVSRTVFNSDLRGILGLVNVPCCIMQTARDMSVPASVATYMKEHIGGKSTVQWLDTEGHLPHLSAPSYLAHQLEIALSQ
Sequence of UniProt Q9NZC2 (whole entry, looked up): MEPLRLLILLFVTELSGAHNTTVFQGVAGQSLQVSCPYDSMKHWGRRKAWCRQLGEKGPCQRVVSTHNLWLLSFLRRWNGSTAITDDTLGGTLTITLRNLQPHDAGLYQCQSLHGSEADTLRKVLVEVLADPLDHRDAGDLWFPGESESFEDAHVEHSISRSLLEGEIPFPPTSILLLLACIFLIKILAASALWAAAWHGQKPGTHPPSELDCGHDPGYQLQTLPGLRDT
Sequence of UniProt O22476 (whole entry, looked up): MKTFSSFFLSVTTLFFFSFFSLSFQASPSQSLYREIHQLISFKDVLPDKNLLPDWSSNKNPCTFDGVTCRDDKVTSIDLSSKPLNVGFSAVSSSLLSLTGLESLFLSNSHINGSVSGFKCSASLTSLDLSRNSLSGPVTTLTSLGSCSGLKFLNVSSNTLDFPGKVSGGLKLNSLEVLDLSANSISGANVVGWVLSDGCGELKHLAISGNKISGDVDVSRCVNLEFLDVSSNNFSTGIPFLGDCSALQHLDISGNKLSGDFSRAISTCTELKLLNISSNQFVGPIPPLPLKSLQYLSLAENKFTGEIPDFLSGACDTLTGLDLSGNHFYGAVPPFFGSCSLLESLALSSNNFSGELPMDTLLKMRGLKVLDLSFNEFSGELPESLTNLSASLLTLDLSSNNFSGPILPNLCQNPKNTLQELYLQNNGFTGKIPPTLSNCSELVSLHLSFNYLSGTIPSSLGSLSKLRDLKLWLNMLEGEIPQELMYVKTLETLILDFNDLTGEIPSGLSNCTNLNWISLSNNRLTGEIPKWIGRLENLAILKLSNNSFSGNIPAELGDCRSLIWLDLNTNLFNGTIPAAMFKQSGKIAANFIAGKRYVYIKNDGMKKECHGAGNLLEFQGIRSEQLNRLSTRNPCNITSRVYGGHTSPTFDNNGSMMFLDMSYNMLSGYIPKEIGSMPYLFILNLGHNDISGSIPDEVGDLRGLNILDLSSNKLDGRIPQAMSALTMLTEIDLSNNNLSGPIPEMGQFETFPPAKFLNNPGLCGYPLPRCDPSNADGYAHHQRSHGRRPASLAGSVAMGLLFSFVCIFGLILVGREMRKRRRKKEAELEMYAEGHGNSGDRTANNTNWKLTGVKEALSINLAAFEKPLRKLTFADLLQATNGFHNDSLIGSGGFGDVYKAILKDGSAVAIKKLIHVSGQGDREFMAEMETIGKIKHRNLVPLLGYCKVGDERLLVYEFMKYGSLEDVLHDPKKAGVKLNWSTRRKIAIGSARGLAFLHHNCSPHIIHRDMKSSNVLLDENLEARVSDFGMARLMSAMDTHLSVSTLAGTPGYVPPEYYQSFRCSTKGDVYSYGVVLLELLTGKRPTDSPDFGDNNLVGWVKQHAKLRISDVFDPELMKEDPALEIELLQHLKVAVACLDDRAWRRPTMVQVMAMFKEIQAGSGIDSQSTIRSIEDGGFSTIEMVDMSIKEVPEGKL
Sequence of UniProt P00742 (whole entry, looked up): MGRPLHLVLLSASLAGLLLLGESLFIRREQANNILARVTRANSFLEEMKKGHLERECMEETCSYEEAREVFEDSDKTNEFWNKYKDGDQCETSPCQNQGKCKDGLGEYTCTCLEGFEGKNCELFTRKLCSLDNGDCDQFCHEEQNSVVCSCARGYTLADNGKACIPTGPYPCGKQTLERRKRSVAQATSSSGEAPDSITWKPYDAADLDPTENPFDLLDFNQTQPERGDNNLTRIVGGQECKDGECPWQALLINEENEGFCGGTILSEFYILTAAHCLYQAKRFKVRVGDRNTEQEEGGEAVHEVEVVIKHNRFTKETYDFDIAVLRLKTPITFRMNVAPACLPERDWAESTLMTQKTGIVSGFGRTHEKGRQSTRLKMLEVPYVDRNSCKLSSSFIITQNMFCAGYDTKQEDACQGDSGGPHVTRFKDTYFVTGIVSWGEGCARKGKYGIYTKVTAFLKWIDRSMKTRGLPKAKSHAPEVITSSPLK

SMILES = CC(CC1CCCCC1)Nc1nn2c(=O)ccnc2s1 (stereo not drawn); target = PPM1D; test = binding; Kd = 1100 nM
SMILES = Cc1c[nH]c2nccc(-c3ccc(C(=O)N[C@@H]4c5c(F)cc(C(F)F)cc5C[C@@H]4O)cn3)c12; target = Rho-associated protein kinase 2 (ROCK2, Homo sapiens, UniProt O75116); test = binding, competition with immobilised ligand; Kd = 4.8 nM
SMILES = Cc1c(Cc2ccc(Cl)c(O[C@@H](C)C(=O)O)c2)c2ccc(C(=O)N[C@@H](C)c3cc(F)cc(C(C)(C)C)c3)cc2n1C; target = PPARG; test = ligand displacement, TR-FRET; Kd = 1.83 nM
SMILES = CC(=O)N[C@@H]1[C@@H](O[C@@H]2O[C@H](C(=O)O)[C@@H](O[C@@H]3O[C@H](COS(=O)(=O)O)[C@@H](OS(=O)(=O)O)[C@H](O[C@@H]4O[C@H](C(=O)O)[C@@H](OS(=O)(=O)O)[C@H](OS(=O)(=O)O)[C@H]4OS(=O)(=O)O)[C@H]3NC(C)=O)[C@H](OS(=O)(=O)O)[C@H]2OS(=O)(=O)O)[C@H](OS(=O)(=O)O)[C@@H](COS(=O)(=O)O)O[C@H]1N=[N+]=[N-]; target = Interleukin-8 (CXCL8, Homo sapiens, UniProt P10145); test = binding, ITC; Kd = 33.7 nM and 36.8 nM and 32 nM
SMILES = COc1cc(C(=O)N2CC[C@@H](O)[C@@H](N)C2)cc2nc(-c3cc4cccnc4n3CC3CC3)n(C)c12; target = Protein-arginine deiminase type-4 (PADI4, Homo sapiens, UniProt Q9UM07); test = surface plasmon resonance; Kd = 457 nM and 473 nM and 495 nM and 451 nM
SMILES = Cc1c(Cc2ccc(Cl)c(OC(C)C(=O)O)c2)c2ccc(C(=O)NC(C)c3ccc(C(C)(C)C)cc3)cc2n1CC1CCC1 (stereo not drawn); target = PPARG; test = ligand displacement, TR-FRET; Kd = 0.236 nM
SMILES = CC(=O)c1cnc2ccc(-c3cc(Cl)c(O)c(Cl)c3)nc2c1N[C@H]1CC[C@H](CN(C)C)CC1; target = BRI1 (Arabidopsis thaliana, UniProt O22476); test = binding, SPR; Kd = > 100000 nM
SMILES = N=C(N)NCCC[C@H](NC(=O)[C@H](Cc1c[nH]cn1)NC(=O)[C@@H](N)CO)C(=O)N[C@@H](CCC(=O)O)C(=O)N[C@@H](Cc1ccccc1)C(=O)N1CCC[C@H]1C(=O)N[C@@H](Cc1ccccc1)C(=O)N[C@@H](Cc1ccc(O)cc1)C(=O)NCC(=O)N[C@@H](CC(=O)O)C(=O)N[C@@H](Cc1ccc(O)cc1)C(=O)NCC(=O)N[C@@H](CO)C(=O)O; target = TMEM97; test = SPR; setting = pH 7.4, 25 °C; Kd = > 50000 nM
SMILES = CC(C)Cn1cc(Cc2cccc(OC(C)(C)C(=O)O)c2)c2ccc(C(=O)N[C@@H](C)c3cc(F)cc(C(C)(C)C)c3)cc21; target = PPARG; test = ligand displacement, TR-FRET; Kd = 2.87 nM
SMILES = N=C(N)NCCC[C@H](NC(=O)[C@H](Cc1ccc(O)cc1)NC(=O)CNC(=O)[C@H](Cc1c[nH]cn1)NC(=O)[C@H](Cc1c[nH]cn1)NC(=O)[C@H](CCCNC(=N)N)NC(=O)[C@H](CCCCN)NC(=O)[C@H](CCC(=O)O)NC(=O)[C@@H](N)Cc1c[nH]cn1)C(=O)N[C@@H](CCCNC(=N)N)C(=O)N[C@@H](CCCCN)C(=O)N[C@@H](Cc1ccccc1)C(=O)N[C@@H](Cc1c[nH]cn1)C(=O)N[C@@H](CCC(=O)O)C(=O)N[C@@H](CCCCN)C(=O)N[C@@H](Cc1c[nH]cn1)C(=O)N[C@@H](Cc1c[nH]cn1)C(=O)O; target = TMEM97; test = SPR; setting = pH 7.4, 25 °C; Kd = 2530 ± 1110 nM
SMILES = Cc1c(Cc2ccc(Cl)c(O[C@@H](C)C(=O)O)c2)c2ccc(C(=O)N[C@@H](C)c3ccc(C(C)(C)C)cc3)cc2n1C; target = PPARG; test = ligand displacement, TR-FRET; Kd = 0.259 nM
SMILES = C[C@H](N)C(=O)N[C@@H](C)C(=O)N[C@@H](C)C(=O)N[C@@H](CCCNC(=N)N)C(=O)N[C@@H](CCCCN)C(=O)N[C@@H](Cc1ccccc1)C(=O)N[C@@H](Cc1c[nH]cn1)C(=O)N[C@@H](CCC(=O)O)C(=O)N[C@@H](CCCCN)C(=O)N[C@@H](Cc1c[nH]cn1)C(=O)N[C@@H](Cc1c[nH]cn1)C(=O)N[C@@H](CO)C(=O)N[C@@H](Cc1c[nH]cn1)C(=O)N[C@@H](CCCNC(=N)N)C(=O)N[C@@H](CCC(=O)O)C(=O)N[C@@H](Cc1ccccc1)C(=O)N1CCC[C@H]1C(=O)N[C@@H](Cc1ccccc1)C(=O)O; target = TMEM97; test = SPR; setting = pH 7.4, 25 °C; Kd = 4700 ± 700 nM
SMILES = Cc1c(Cc2ccc(OC(C)C(=O)O)cc2)c2ccc(C(=O)NC(C)c3ccc(C(C)(C)C)cc3)cc2n1C (mixture of isomers); target = PPARG; test = ligand displacement, TR-FRET; Kd = 25.5 nM
SMILES = Nc1nnc(-c2ccccc2O)cc1N1CC2CCC(C1)N2c1ccnc(C#CCCN2CCCCCC2)c1; target = SWI/SNF-related matrix-associated actin-dependent regulator of chromatin subfamily A member 2 (SMARCA2, Homo sapiens, UniProt P51531); test = binding, NanoBRET tracer displacement; system = permeabilized HEK293; Kd = 29 ± 6.7 nM
SMILES = N=C(N)c1ccc(CNC(=O)CNC(=O)[C@@H](COCc2ccccc2)NS(=O)(=O)Cc2ccccc2)cc1; target = Coagulation factor X (F10, Homo sapiens, UniProt P00742); test = binding, BLI; Kd = 137 nM
SMILES = CCCCCCCO[C@H]1CO[C@H](CO)[C@@H](O)[C@H](O)[C@@H]1O; target = Type 1 fimbrin D-mannose specific adhesin, lectin domain (fimH, Escherichia coli K-12, UniProt P08191); test = binding, isothermal titration calorimetry; setting = 25 °C, individual titrations; Kd = 264 nM and 276 nM
SMILES = CC1=C(C)[C@H](Oc2c(F)cc3c(C)cc(=O)oc3c2F)OC1=O; target = RMS3 (Lathyrus oleraceus, UniProt A0A109QYD3, S96C); test = binding, fluorescence; Kd = 55400 nM
SMILES = Cn1ncc2cc(-c3cncc(Cl)c3N3CCC4(CCNC4=O)CC3)ccc21; target = Serine/threonine-protein kinase 16 (STK16, Homo sapiens, UniProt O75716); test = cell-free assay; setting = lysate; Kd = 19300 nM
SMILES = C[C@H](NC(=O)[C@H](C)NC(=O)[C@H](C)NC(=O)[C@H](Cc1c[nH]cn1)NC(=O)[C@H](Cc1c[nH]cn1)NC(=O)[C@H](CCCCN)NC(=O)[C@H](CCC(=O)O)NC(=O)[C@H](Cc1c[nH]cn1)NC(=O)[C@H](Cc1ccccc1)NC(=O)[C@H](CCCCN)NC(=O)[C@H](CCCNC(=N)N)NC(=O)[C@H](CCCNC(=N)N)NC(=O)[C@H](Cc1ccc(O)cc1)NC(=O)CN)C(=O)N[C@@H](C)C(=O)N[C@@H](C)C(=O)N1CCC[C@H]1C(=O)N[C@@H](Cc1ccccc1)C(=O)O; target = TMEM97; test = SPR; setting = pH 7.4, 25 °C; Kd = 22700 ± 5300 nM
SMILES = CCn1c(C)c(Cc2ccc(Cl)c(O[C@H](C)C(=O)O)c2)c2ccc(C(=O)N[C@@H](C)c3ccc(C(C)(C)C)cc3)cc21; target = PPARG; test = ligand displacement, TR-FRET; Kd = 2.57 nM
SMILES = NS(=O)(=O)c1cc(C(=O)NCCCC(=O)O)c(NC2CCCCC2)cc1Cl; target = Carbonic anhydrase 13 (CA13, Homo sapiens, UniProt Q8N1Q1); setting = pH 7; Kd = 10000 nM
SMILES = CCC(C)n1c(C(=O)Nc2cnc(C(=O)NC)n(CC(C)C)c2=O)ncc(NC(=O)c2ncc(NC(=O)c3ccccc3)c(=O)n2CCc2ccc(OCc3ccccc3)cc2)c1=O (stereo not drawn); target = Heat shock protein HSP 90-alpha, C-terminal domain (HSP90AA1, Homo sapiens, UniProt P07900); test = binding, microscale thermophoresis, refers to: C-terminal domain; setting = with: labelled CTD 50 nM; Kd = 11700 ± 1000 nM
SMILES = CN(C)c1ccc2c(-c3cc(C(=O)NCCNC(=O)[C@H](CC4CCCCC4)NC(=O)c4ccc(CNc5ccccn5)s4)ccc3C(=O)O)c3ccc(=[N+](C)C)cc-3oc2c1; target = PPM1D; test = cell-free assay, FP; Kd = 193 nM
SMILES = CC[C@H](C)[C@H](NC(=O)[C@H](C)NC(=O)[C@H](CC(C)C)NC(=O)[C@H](CCC(N)=O)NC(=O)[C@H](CCCNC(=N)N)NC(=O)CNC(=O)[C@@H](NC(=O)[C@H](CCC(N)=O)NC(=O)CNC(=O)[C@H](CCSC)NC(=O)[C@@H](NC(=O)[C@H](CO)NC(=O)[C@H](CO)NC(C)=O)[C@@H](C)O)C(C)C)C(=O)N[C@H](C(=O)NCC(=O)N[C@@H](CC(=O)O)C(=O)N[C@@H](CC(=O)O)C(=O)N[C@H](C(=O)N[C@@H](CC(N)=O)C(=O)N[C@@H](CCCNC(=N)N)C(=O)N[C@@H](CCCNC(=N)N)C(=O)N[C@@H](Cc1ccc(O)cc1)C(N)=O)[C@@H](C)CC)[C@@H](C)CC; target = Induced myeloid leukemia cell differentiation protein Mcl-1 (MCL1, Homo sapiens, UniProt Q07820); test = binding, microscale thermophoresis; setting = MBP fusion in DDM micelles; Kd = 20.5 ± 8 nM
SMILES = C=CC(=O)N1CC2(CCN(c3nc(OC4CCN(CCCOC)CC4)nc4c(OCC(F)(F)F)c(-c5c(C)ccc6[nH]ncc56)c(C5CC5)cc34)CC2)C1; target = GTPase KRas, GDP-bound (KRAS, Homo sapiens, UniProt P01116, G12V); test = binding, surface plasmon resonance; Kd = 36500 ± 1600 nM
SMILES = Cc1c(Cc2ccc(Cl)c(O[C@@H](C)C(=O)O)c2)c2ccc(C(=O)N[C@@H](C)c3ccc(C(C)(C)C)cc3)cc2n1CC1CC1; target = PPARG; test = ligand displacement, TR-FRET; Kd = 0.124 nM
SMILES = Cc1oc(-c2ccc(C(F)(F)F)cc2)nc1COc1ccc(S(=O)(=O)N2c3ccccc3C[C@@H]2C(=O)O)cc1; target = Triggering receptor expressed on myeloid cells 2 (Homo sapiens, UniProt Q9NZC2); test = binding, SPR; Kd = 95600 nM
SMILES = CC1=C[C@H](O/C=C2/C(=O)O[C@@H]3c4ccccc4C[C@H]23)OC1=O (racemic); target = RMS3 (Lathyrus oleraceus, UniProt A0A109QYD3, S96A); test = binding, fluorescence; Kd = 503000 nM
SMILES = Cc1c(Cc2cc(F)cc(OC(C)(C)C(=O)O)c2)c2ccc(C(=O)N[C@@H](C)c3cccc(C(C)(C)C)c3)cc2n1CC(C)C; target = PPARG; test = ligand displacement, TR-FRET; Kd = 0.761 nM
SMILES = Cc1cccc2c1N(C(=O)n1ccnn1)CC2; target = KAI2 (Arabidopsis thaliana, UniProt Q9SZU7, F157A); test = ITC; setting = F157A mutant; Kd = 246000 nM and 424000 nM and 300000 nM

Some of these lines once more:
SMILES = C=CC(=O)N1CC2(CCN(c3nc(OC4CCN(CCCOC)CC4)nc4c(OCC(F)(F)F)c(-c5c(C)ccc6[nH]ncc56)c(C5CC5)cc34)CC2)C1; target = GTPase KRas, GDP-bound (KRAS, Homo sapiens, UniProt P01116, G12V); test = binding, surface plasmon resonance; Kd = 36500 ± 1600 nM
SMILES = Cc1c(Cc2ccc(Cl)c(O[C@@H](C)C(=O)O)c2)c2ccc(C(=O)N[C@@H](C)c3ccc(C(C)(C)C)cc3)cc2n1CC1CC1; target = PPARG; test = ligand displacement, TR-FRET; Kd = 0.124 nM
SMILES = Cc1oc(-c2ccc(C(F)(F)F)cc2)nc1COc1ccc(S(=O)(=O)N2c3ccccc3C[C@@H]2C(=O)O)cc1; target = Triggering receptor expressed on myeloid cells 2 (Homo sapiens, UniProt Q9NZC2); test = binding, SPR; Kd = 95600 nM
SMILES = CC1=C[C@H](O/C=C2/C(=O)O[C@@H]3c4ccccc4C[C@H]23)OC1=O (racemic); target = RMS3 (Lathyrus oleraceus, UniProt A0A109QYD3, S96A); test = binding, fluorescence; Kd = 503000 nM
SMILES = Cc1c(Cc2cc(F)cc(OC(C)(C)C(=O)O)c2)c2ccc(C(=O)N[C@@H](C)c3cccc(C(C)(C)C)c3)cc2n1CC(C)C; target = PPARG; test = ligand displacement, TR-FRET; Kd = 0.761 nM
